Earlier results that unrelated publications cite.
Lines come from different studies, so protocols differ. ± gives the spread as reported. In brackets after ≈: the same amount, converted by molar mass.
UniProt Q9P286, sequence (whole entry, looked up): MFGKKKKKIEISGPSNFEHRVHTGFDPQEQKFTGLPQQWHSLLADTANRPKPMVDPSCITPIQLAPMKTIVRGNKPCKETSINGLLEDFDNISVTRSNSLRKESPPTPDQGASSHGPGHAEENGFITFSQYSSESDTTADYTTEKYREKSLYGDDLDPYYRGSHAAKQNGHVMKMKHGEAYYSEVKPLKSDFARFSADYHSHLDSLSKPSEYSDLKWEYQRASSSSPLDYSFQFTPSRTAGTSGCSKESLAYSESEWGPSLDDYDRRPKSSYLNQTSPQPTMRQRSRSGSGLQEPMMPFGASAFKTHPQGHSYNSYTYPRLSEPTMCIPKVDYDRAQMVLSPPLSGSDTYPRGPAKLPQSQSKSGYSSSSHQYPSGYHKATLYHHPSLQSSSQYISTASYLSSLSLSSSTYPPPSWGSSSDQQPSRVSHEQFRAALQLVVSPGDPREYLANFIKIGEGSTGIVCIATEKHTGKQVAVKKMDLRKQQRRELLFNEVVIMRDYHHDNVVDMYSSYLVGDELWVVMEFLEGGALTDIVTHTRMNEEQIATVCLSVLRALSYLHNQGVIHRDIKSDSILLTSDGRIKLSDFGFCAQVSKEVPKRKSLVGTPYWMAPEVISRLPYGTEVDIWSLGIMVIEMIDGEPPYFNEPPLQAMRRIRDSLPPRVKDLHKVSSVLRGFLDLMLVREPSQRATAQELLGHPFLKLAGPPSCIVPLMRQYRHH

Structure (SMILES) | target or system | test | test system | conditions | scale | quantity | result
Nc1cc(C(F)(F)F)c(-c2nc(N3CCOCC3)nc(N3CCOCC3)n2)cn1 | PAK5 (Homo sapiens, UniProt Q9P286) | enzyme activity |  | 10 µM | reference: untreated | remaining activity | 86%
Nc1ccn([C@@H]2CS[C@H](CO)O2)c(=O)n1 |  |  | rat | 10 mg/kg |  | oral bioavailability | 80%
Cc1cc(Nc2ccc(S(F)(F)(F)(F)F)cc2)n2ncnc2n1 |  |  | 10 mM HCl | pH 2 |  | kinetic solubility | 71 µM (≈ 24.9 µg/mL)
Cc1cc(-c2nccc3c2ccn3CC(=O)Nc2ccc(-c3cnccn3)cn2)ccn1 |  |  | rat | minimal to mild findings |  | dose with bone changes | ≥ 6 mg/kg/day
c1ccc2c(c1)ccc1ccccc12 |  | slow stirring |  |  |  | logKow | 4.62
CNC(C)C1CCC(N)C(OC2C(N)CC(N)C(OC3OCC(C)(O)C(NC)C3O)C2O)O1 (stereo not drawn) | Escherichia coli |  | clinical isolate RKI-No_1023/14 |  |  | MIC | 1 µg/mL (≈ 2.09 µM)
COc1cc2c(Oc3ccc4[nH]c(C)cc4c3F)ccnc2cc1OCC1(N)CC1 |  |  | human | 10 mg single dose |  | AUC(0-t) | 385 ± 175 ng·h/mL
O=C(O)CN1CCN(CC(=O)O)CCN(CC(=O)O)CCN(CC(=O)O)CC1 |  | pH-potentiometry, item: logK3H | 0.15 M NaClO4 | 25 °C |  | protonation constant (log) | 4.51
CN(C)C(=N)N=C(N)N |  |  | healthy human subjects |  |  | rate constant k13 | 0.0874 min⁻¹
OC(Cn1cncn1)(Cn1cncn1)c1ccc(F)cc1F |  | perpetrator, item: (S)-warfarin | human | dose not given | reference: without compound | AUC increase | 184%
Nc1ccn([C@H]2CO[C@@H](CO)S2)c(=O)n1 |  |  | rat | 10 mg/kg |  | oral bioavailability | 68%
Nc1ccn([C@@H]2O[C@H](CO)[C@@H](O)C2(F)F)c(=O)n1 |  |  | pancreatic cancer patients | dose not given |  | dose reductions due to Leukopenia | 13%
CCCCCCCCCCCCCCCC(=O)N[C@@H](CCC(=O)NCCCC[C@H](NC(=O)[C@H](C)NC(=O)[C@H](C)NC(=O)[C@H](CCC(N)=O)NC(=O)CNC(=O)[C@H](CCC(=O)O)NC(=O)[C@H](CC(C)C)NC(=O)[C@H](Cc1ccc(O)cc1)NC(=O)[C@H](CO)NC(=O)[C@H](CO)NC(=O)[C@@H](NC(=O)[C@H](CC(=O)O)NC(=O)[C@H](CO)NC(=O)[C@@H](NC(=O)[C@H](Cc1ccccc1)NC(=O)[C@@H](NC(=O)CNC(=O)[C@H](CCC(=O)O)NC(=O)[C@H](C)NC(=O)[C@@H](N)Cc1cnc[nH]1)[C@@H](C)O)[C@@H](C)O)C(C)C)C(=O)N[C@@H](CCC(=O)O)C(=O)N[C@@H](Cc1ccccc1)C(=O)N[C@H](C(=O)N[C@@H](C)C(=O)N[C@@H](Cc1c[nH]c2ccccc12)C(=O)N[C@@H](CC(C)C)C(=O)N[C@H](C(=O)N[C@@H](CCCNC(=N)N)C(=O)NCC(=O)N[C@@H](CCCNC(=N)N)C(=O)NCC(=O)O)C(C)C)[C@@H](C)CC)C(=O)O |  |  | overweight or obese adults | 3.0 mg |  | cholecystitis incidence | 0.6%
Cc1cc(C[C@@H](NC(=O)N2CCC(c3cc4ccccc4[nH]c3=O)CC2)C(=O)N2CCN(C3CCN(C)CC3)CC2)cc2cn[nH]c12 |  |  | human | intravenous, 5 mg single dose |  | biliary/fecal elimination | > 80%
NC[C@@]1(CC(=O)O)[C@@H]2CC[C@H]3C[C@@H]2[C@@H]1C3 |  |  | healthy humans | 40 mg | reference: dose | faecal excretion | 6.55%
CC(C)n1c(=O)n(C)c2cnc3cc(F)c(-c4ccc(OCCCN5CCCCC5)nc4)cc3c21 |  |  | mouse, brain over plasma |  |  | Kp,uu | 0.04
O=C(c1cccnc1-c1ccncc1)N1CCC(O)(Cc2ccccc2)CC1 |  |  | urine | oral, 300 mg [14C]-labelled, single, time not given |  | dose recovered | 94.8%
CCCCCC(CCC)C(=O)O (stereo not drawn) |  | small eyes | zebrafish embryo | nominal concentration |  | EC10 | 153 µM
CO[C@@H](C)Cn1c(=O)n(C)c2cnc3ccc(-c4cncc(C(C)(C)O)c4)cc3c21 |  | item: diarrhea | cancer patients | dose not given, monotherapy |  | patients with related adverse event | 20.8%
O=C(O)CN(CCN(CC(=O)O)CC(=O)O)CCN(CC(=O)O)CC(=O)O |  | pH-potentiometry, item: logK1H | 0.1 M NaClO4 | 25 °C |  | protonation constant (log) | 10
CC(=O)c1c(C)c2cnc(Nc3ccc(N4CCNCC4)cn3)nc2n(C2CCCC2)c1=O |  |  | human advanced cancer patients | dose not given, monotherapy |  | grade ≥3 neutropenia incidence | 33%
O=C(O)Cc1ccccc1Nc1c(Cl)cccc1Cl |  |  | rat |  |  | plasma clearance | 13.6 mL/min/kg
CS(=O)(=O)CCNCc1ccc(-c2ccc3ncnc(Nc4ccc(OCc5cccc(F)c5)c(Cl)c4)c3c2)o1 |  |  | dog | dose not given |  | volume of distribution | 5.7 L/kg

Structure (SMILES) | target or system | test | test system | conditions | scale | quantity | result
N#C[C@@]1(c2ccc3c(N)ncnn23)O[C@H](CO)[C@@H](O)[C@H]1O |  |  | dog | oral, 5 mg/kg, solution, unadjusted NCATS data |  | AUC(0-inf) | 62.9 µM·h
O=C(c1cccnc1-c1ccncc1)N1CCC(O)(Cc2ccccc2)CC1 |  |  | human adults | dose not given, placebo-controlled period |  | participants with TEAE | 71.4%
CC(C)C[C@@H](NC(=O)[C@H](C)NC(=O)CNC(=O)[C@@H](NC=O)C(C)C)C(=O)N[C@@H](C)C(=O)N[C@@H](C(=O)N[C@H](C(=O)N[C@@H](C(=O)N[C@@H](Cc1c[nH]c2ccccc12)C(=O)N[C@H](CC(C)C)C(=O)N[C@@H](Cc1c[nH]c2ccccc12)C(=O)N[C@H](CC(C)C)C(=O)N[C@@H](Cc1c[nH]c2ccccc12)C(=O)N[C@@H](C(=O)N[C@@H](Cc1c[nH]c2ccccc12)C(=O)NCCO)C(C)C)[C@H](C)O)C(C)C)C(C)C |  | hemolysis | rabbit red blood cells |  |  | HC10 | > 3000 nM
CO[C@H]1C[C@@H]2CC[C@@H](C)[C@@](O)(O2)C(=O)C(=O)N2CCCC[C@H]2C(=O)O[C@H]([C@H](C)C[C@@H]2CC[C@@H](O)[C@H](OC)C2)CC(=O)[C@H](C)/C=C(\C)[C@@H](O)[C@@H](OC)C(=O)[C@H](C)C[C@H](C)/C=C/C=C/C=C/1C |  |  | human |  |  | renal clearance | 0.018 L/h
C=CC(=O)NC1CCN(c2ncc3ncnc(Nc4ccc(Oc5ccc6c(c5)ncn6C)c(C)c4)c3n2)CC1 |  |  | human | dose not given |  | time to steady state | ~2.5 days
CN(C)C(=O)c1cc2cnc(Nc3ccc(N4CCNCC4)cn3)nc2n1C1CCCC1 |  |  | dog | dose not given |  | oral bioavailability | 64%
CCCCC(C)C(=O)O (stereo not drawn) |  | scoliosis or lordosis | zebrafish embryo | nominal concentration |  | EC10 | 383 µM
CO[C@H]1C[C@@H]2CC[C@@H](C)[C@@](O)(O2)C(=O)C(=O)N2CCCC[C@H]2C(=O)O[C@H]([C@H](C)C[C@@H]2CC[C@@H](OCCO)[C@H](OC)C2)CC(=O)[C@H](C)/C=C(\C)[C@@H](O)[C@@H](OC)C(=O)[C@H](C)C[C@H](C)/C=C/C=C/C=C/1C |  |  | plasma | concentration not given, population PK two-compartment |  | apparent peripheral volume (V2/F) | 517 L
CO[C@]1(C(=O)N[C@@H](C)c2ccc(-n3cc(F)cn3)nc2)CC[C@H](c2nc(C)cc(Nc3cc(C)[nH]n3)n2)CC1 |  |  | healthy human |  | reference: radioactivity | metabolites by oxidation and glucuronidation | ~5%
CN[C@@H](C)C(=O)N[C@H]1CN(S(=O)(=O)c2cccc(S(=O)(=O)N3CC[C@H]4CC[C@@H](C(=O)NC(c5ccccc5)c5ccccc5)N4C(=O)[C@@H](NC(=O)[C@H](C)NC)C3)c2)CC[C@H]2CC[C@@H](C(=O)NC(c3ccccc3)c3ccccc3)N2C1=O |  |  | rat |  | reference: dose | cumulative urinary excretion | < 1%
Cn1ncnc1[C@H]1c2n[nH]c(=O)c3cc(F)cc(c23)N[C@@H]1c1ccc(F)cc1 |  |  | human moderate renal impairment | dose not given | reference: normal renal function | AUC(0-24) increase | ~56.8%
CC(C)[C@@H](CS(=O)(=O)C(C)C)N1C(=O)[C@@](C)(CC(=O)O)C[C@H](c2cccc(Cl)c2)[C@H]1c1ccc(Cl)cc1 |  |  | patients with solid tumours or lymphomas | dose not given, grade ≥3, first-in-human trials |  | patients with related neutropenia | 21%
Cc1ccc([C@@H]2O[C@H](CO)[C@@H](O)[C@H](O)[C@H]2O)cc1Cc1ccc(-c2ccc(F)cc2)s1 |  |  | human, preserved kidney function | 100 mg, steady state, mean |  | AUC(0-24) | 6060 ng·h/mL
COC(=O)C1=C(C)NC(C)=C(C(=O)OCC(C)C)C1c1ccccc1[N+](=O)[O-] (stereo not drawn) |  |  |  |  |  | logD | 4.96
CO[C@H]1/C=C/O[C@@]2(C)Oc3c(C)c(O)c4c(O)c(c(/C=N/N5CCN(C)CC5)c(O)c4c3C2=O)NC(=O)/C(C)=C\C=C\[C@H](C)[C@H](O)[C@@H](C)[C@@H](O)[C@@H](C)[C@H](OC(C)=O)[C@@H]1C |  |  | human |  |  | renal clearance | 0.183 mL/min/kg
C[C@@]1(O)CCC[C@H]1n1c(=O)c(C(F)F)cc2cnc(NC3CCN(S(C)(=O)=O)CC3)nc21 |  |  | mouse | oral, 50 twice daily |  | free C24h | 32 nM
CCCCCOC(=O)c1ccc(O)cc1 |  |  |  | pH 7.4 |  | logD | 3.18
CC1(C)CCC(CN2CCN(c3ccc(C(=O)NS(=O)(=O)c4ccc(NCC5CCOCC5)c([N+](=O)[O-])c4)c(Oc4cnc5[nH]ccc5c4)c3)CC2)=C(c2ccc(Cl)cc2)C1 |  |  | patients | dose not given | reference: Asian over non-Asian | AUC increase at steady state | ~67%
Cc1ccsc1C(=CCCN1CCC[C@@H](C(=O)O)C1)c1sccc1C |  |  | mouse | i.p., 6 Hz seizure test, 32 mA |  | protective index | 8.6
Nc1nc(O)c2ncn(COC(CO)CO)c2n1 |  |  | rat |  |  | oral bioavailability | 3.6%
CC1(C)S[C@@H]2[C@H](NC(=O)[C@H](N)c3ccccc3)C(=O)N2[C@H]1C(=O)O | Escherichia coli |  | clinical isolate RKI-No_1023/14 |  |  | MIC | > 16 µg/mL
CN1CC[C@@H](c2c(O)cc(O)c3c(=O)cc(-c4ccc(C(F)(F)F)cc4Cl)oc23)[C@@H]1CO |  |  | human | 200 mg daily, 14 days |  | trough concentration | > 1.5 µM

Repeated from above:
Structure (SMILES) | target or system | test | test system | conditions | scale | quantity | result
CNC(C)C1CCC(N)C(OC2C(N)CC(N)C(OC3OCC(C)(O)C(NC)C3O)C2O)O1 (stereo not drawn) | Escherichia coli |  | clinical isolate RKI-No_1023/14 |  |  | MIC | 1 µg/mL (≈ 2.09 µM)
COc1cc2c(Oc3ccc4[nH]c(C)cc4c3F)ccnc2cc1OCC1(N)CC1 |  |  | human | 10 mg single dose |  | AUC(0-t) | 385 ± 175 ng·h/mL
O=C(O)CN1CCN(CC(=O)O)CCN(CC(=O)O)CCN(CC(=O)O)CC1 |  | pH-potentiometry, item: logK3H | 0.15 M NaClO4 | 25 °C |  | protonation constant (log) | 4.51
CN(C)C(=N)N=C(N)N |  |  | healthy human subjects |  |  | rate constant k13 | 0.0874 min⁻¹
OC(Cn1cncn1)(Cn1cncn1)c1ccc(F)cc1F |  | perpetrator, item: (S)-warfarin | human | dose not given | reference: without compound | AUC increase | 184%
Nc1ccn([C@H]2CO[C@@H](CO)S2)c(=O)n1 |  |  | rat | 10 mg/kg |  | oral bioavailability | 68%
